Published values pooled from the literature.
Every numbered part comes from another study and shows a few of its results, in no order.
UniProt P10721, sequence (whole entry, unmodified, looked up): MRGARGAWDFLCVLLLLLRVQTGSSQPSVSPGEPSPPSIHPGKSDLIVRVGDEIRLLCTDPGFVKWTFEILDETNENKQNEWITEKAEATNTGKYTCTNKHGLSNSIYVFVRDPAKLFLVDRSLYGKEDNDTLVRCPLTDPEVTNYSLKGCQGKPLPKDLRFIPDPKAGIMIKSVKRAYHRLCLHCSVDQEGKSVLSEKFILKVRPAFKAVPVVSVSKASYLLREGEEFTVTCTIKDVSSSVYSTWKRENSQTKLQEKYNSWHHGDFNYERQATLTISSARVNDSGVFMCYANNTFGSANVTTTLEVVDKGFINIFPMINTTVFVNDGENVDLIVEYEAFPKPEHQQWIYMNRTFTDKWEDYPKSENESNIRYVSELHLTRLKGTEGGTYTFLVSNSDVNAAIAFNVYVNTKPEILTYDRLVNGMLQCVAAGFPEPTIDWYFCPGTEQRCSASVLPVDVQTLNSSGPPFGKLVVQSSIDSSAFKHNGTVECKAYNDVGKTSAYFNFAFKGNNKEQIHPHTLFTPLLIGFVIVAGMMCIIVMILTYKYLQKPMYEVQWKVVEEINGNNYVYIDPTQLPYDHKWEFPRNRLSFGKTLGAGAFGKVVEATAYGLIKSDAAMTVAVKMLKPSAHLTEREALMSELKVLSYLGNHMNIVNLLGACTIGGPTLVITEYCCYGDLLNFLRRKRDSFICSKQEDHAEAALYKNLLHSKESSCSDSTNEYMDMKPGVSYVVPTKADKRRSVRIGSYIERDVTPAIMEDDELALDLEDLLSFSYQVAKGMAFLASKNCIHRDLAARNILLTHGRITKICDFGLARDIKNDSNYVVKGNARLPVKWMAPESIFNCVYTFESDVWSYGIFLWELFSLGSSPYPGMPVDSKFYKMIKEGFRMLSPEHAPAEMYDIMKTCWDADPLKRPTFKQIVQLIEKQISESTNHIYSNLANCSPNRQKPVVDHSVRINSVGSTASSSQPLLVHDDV
UniProt Q13188, sequence (whole entry, looked up): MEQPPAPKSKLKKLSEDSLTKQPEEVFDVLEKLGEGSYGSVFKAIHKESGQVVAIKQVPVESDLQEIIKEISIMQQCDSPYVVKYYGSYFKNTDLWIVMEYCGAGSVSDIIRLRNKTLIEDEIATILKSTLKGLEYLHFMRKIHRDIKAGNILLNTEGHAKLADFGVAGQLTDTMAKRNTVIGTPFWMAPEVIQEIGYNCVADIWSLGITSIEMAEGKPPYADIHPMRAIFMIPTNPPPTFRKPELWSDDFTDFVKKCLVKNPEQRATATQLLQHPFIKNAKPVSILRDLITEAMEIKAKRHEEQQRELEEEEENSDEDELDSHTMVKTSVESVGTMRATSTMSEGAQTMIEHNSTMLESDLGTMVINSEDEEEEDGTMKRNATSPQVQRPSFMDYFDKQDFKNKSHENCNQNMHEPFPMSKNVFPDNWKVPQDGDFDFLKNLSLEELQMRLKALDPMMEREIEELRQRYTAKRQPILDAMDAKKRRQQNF
UniProt Q13546, sequence (whole entry, looked up): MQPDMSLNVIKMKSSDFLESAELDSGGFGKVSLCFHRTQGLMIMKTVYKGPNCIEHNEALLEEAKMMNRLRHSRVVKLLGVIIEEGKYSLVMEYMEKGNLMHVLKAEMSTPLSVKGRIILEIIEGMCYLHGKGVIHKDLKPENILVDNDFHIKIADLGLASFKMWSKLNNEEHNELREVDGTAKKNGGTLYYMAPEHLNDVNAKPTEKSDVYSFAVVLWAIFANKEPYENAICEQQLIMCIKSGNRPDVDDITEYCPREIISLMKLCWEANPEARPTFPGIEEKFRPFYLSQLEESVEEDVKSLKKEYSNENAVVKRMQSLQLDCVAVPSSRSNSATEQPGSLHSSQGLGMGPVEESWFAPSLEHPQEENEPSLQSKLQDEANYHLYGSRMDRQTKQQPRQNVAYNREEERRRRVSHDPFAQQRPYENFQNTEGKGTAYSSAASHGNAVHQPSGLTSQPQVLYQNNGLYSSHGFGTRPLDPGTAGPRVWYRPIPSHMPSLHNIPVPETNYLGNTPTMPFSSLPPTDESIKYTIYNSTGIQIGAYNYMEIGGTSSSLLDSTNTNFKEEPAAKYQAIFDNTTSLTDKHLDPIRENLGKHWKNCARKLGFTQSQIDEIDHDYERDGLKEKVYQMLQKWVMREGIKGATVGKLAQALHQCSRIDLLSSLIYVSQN
UniProt P51812, sequence (whole entry, looked up): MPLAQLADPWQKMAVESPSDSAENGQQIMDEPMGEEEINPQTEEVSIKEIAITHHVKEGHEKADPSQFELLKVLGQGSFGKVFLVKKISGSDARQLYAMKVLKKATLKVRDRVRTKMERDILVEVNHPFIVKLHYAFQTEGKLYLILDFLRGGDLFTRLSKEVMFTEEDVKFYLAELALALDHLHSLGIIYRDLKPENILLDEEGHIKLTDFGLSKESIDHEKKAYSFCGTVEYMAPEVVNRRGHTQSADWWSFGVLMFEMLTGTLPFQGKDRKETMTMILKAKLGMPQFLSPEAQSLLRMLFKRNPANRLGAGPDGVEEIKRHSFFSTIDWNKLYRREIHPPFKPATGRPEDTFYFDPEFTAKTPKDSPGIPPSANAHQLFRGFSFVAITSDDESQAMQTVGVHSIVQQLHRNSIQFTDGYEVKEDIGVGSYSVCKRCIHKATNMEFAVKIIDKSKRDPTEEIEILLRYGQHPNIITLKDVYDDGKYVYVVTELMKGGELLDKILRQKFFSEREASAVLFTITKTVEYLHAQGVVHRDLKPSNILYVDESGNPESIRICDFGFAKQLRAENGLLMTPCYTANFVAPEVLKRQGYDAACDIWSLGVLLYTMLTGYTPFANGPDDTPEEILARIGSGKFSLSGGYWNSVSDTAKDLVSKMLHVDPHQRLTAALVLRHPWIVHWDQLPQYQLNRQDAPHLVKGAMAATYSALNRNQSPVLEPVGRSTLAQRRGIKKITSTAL
UniProt Q9UQM7, sequence (whole entry, looked up): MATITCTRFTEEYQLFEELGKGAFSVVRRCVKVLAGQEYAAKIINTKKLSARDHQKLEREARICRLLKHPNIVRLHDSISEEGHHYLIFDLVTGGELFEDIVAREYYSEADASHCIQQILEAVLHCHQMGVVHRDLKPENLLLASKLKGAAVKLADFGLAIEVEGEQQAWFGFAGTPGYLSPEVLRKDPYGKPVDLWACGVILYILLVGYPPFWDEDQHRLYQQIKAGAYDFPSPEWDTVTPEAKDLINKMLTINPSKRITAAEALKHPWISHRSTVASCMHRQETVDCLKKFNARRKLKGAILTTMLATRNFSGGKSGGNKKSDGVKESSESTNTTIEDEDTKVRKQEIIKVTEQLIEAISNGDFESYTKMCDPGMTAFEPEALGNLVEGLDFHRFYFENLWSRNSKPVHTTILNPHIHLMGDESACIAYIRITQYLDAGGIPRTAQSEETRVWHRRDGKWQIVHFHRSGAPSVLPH
UniProt P54762, sequence (whole entry, looked up): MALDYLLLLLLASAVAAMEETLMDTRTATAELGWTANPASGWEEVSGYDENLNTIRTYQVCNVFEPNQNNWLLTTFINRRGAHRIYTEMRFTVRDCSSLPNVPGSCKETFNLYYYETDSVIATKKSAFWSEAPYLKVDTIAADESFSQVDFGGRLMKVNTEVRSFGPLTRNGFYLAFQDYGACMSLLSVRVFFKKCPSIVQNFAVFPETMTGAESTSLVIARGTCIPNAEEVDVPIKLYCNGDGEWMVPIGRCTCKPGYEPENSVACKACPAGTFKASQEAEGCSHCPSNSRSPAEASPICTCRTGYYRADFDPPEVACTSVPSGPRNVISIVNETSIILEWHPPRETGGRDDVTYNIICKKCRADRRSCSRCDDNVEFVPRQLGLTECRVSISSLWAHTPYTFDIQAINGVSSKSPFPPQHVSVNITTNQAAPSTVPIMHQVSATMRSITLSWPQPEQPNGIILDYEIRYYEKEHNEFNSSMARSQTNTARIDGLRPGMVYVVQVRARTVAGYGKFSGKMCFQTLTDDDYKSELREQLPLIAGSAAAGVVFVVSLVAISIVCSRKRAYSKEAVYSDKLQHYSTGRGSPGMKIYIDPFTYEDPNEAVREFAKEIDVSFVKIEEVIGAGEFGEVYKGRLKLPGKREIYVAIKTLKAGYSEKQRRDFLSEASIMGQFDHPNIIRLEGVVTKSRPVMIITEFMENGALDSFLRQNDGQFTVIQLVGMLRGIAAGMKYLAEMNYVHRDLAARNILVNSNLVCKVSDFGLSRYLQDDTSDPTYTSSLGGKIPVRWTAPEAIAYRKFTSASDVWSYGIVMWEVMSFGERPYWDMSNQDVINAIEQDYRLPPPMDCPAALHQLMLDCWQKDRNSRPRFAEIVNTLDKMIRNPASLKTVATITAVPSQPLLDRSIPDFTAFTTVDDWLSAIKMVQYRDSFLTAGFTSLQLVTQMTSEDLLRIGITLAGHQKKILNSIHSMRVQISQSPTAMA
UniProt P36507, sequence (whole entry, looked up): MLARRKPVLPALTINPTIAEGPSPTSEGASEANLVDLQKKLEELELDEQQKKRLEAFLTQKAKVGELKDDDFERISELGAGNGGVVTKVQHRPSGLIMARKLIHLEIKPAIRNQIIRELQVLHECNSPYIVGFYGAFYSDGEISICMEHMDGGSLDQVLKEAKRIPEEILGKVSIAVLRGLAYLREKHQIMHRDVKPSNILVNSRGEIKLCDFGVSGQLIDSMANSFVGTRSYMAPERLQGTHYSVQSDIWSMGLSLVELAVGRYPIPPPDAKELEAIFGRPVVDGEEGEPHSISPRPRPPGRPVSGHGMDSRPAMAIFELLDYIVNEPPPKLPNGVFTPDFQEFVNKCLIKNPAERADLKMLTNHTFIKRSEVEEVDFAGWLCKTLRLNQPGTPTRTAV

Block 1
Species: human
Matrix: microsomes or S9
Concentration: 2 µM
Time: 0.5 h
Structure (SMILES)	remaining compound [%]
Cc1ccc(C(C)C)c(OCC(O)CN2CCN(CCO)CC2)c1 (stereo not shown)	80.6
CS(=O)(=O)N1CCN(CCCOc2ccc3c(c2)C(=O)C(c2cnc4ccccc4c2)=C3c2ccc(F)cc2F)CC1	84.6
O=S1(=O)N=C(N2CCCCC2)c2ccccc21	98.9
Cc1nn(CCc2nn[nH]n2)c(C)c1Br	31.4
COc1cc2c(Nc3ccc(Br)c(C)c3)ncnc2cc1OCC1CN(C)CCO1 (stereo not shown)	34.4
O=C(NC1CCN(Cc2cccc3c2OCO3)CC1)c1cc2ccccc2o1	33
COc1ccccc1CC(=O)c1ccc(O)c(O)c1O	70.7
COc1cc(/C=C/C(=O)O)cc(S(=O)(=O)Nc2cccc(-c3n[nH]c4c3CCC4)c2)c1OC	94.5
CC1CCN(CCCNc2ncc(-c3cnccn3)c(-c3ccco3)n2)CC1	> 100
COc1cc(=O)n(C)cc1C(=O)NC(c1cccnc1)C1CCOCC1 (stereo not shown)	> 99
C/C=C/C=C/C(=O)N1CCN(C(C)C(N)=O)CC1 (stereo not shown)	79.2

Block 2
SMILES: CN([C@@H]1CCc2c(CC(=O)O)c3ccccc3n2C1)S(=O)(=O)c1ccc(F)cc1
Effect on: cell-free assay
Technique: competition with immobilised ligand
Concentration: 1 µM
target	remaining binding
EPHB1 (Homo sapiens, UniProt P54762)	100%
STK3 (Homo sapiens, UniProt Q13188)	100%
EGFR (Homo sapiens, UniProt P00533, del752-759)	100%
MET (Homo sapiens, UniProt P08581)	100%
MAP2K2 (Homo sapiens, UniProt P36507)	76%
KIT (Homo sapiens, UniProt P10721)	100%
Ribosomal protein S6 kinase alpha-3, N-terminal kinase domain (RPS6KA3, Homo sapiens, UniProt P51812)	100%
KIT (Homo sapiens, UniProt P10721, V559D/V654A)	100%
MAP3K11 (Homo sapiens, UniProt Q16584)	100%
ROCK1 (Homo sapiens, UniProt Q13464)	34%
SGK3 (Homo sapiens, UniProt Q96BR1)	100%
RIPK1 (Homo sapiens, UniProt Q13546)	100%
CAMK2A (Homo sapiens, UniProt Q9UQM7)	91%
NLK (Homo sapiens, UniProt Q9UBE8)	100%
HIPK1 (Homo sapiens, UniProt Q86Z02)	100%

Block 3
Cell line: A-375
Concentration: 100 µM
Time: 18 h
SMILES	viability
O=C1Nc2ccc(Cl)cc2[C@@](C#CC2CC2)(C(F)(F)F)O1	8.35%
OCC(O)CN1CCN(c2ccccc2)CC1 (stereo not shown)	75.3%
CC(=O)OCC(=O)[C@@]1(O)CC[C@H]2[C@@H]3CCC4=CC(=O)CC[C@]4(C)[C@H]3[C@@H](O)C[C@@]21C	92.1%
Cc1cn(-c2cc(NC(=O)c3ccc(C)c(Nc4nccc(-c5cnccn5)n4)c3)cc(C(F)(F)F)c2)cn1	23.3%
CN(C)c1ccc(C(=C2C=CC(=[N+](C)C)C=C2)c2ccc(N(C)C)cc2)cc1	34%
C#C[C@]1(O)CC[C@H]2[C@@H]3CCc4cc(OC5CCCC5)ccc4[C@H]3CC[C@@]21C	8.4%
Cc1cncc(CN2CCC(=C3c4ccc(Cl)cc4CCc4cccnc43)CC2)c1	8.83%
CC(C)C[C@H](NC(=O)CNC(=O)c1cc(Cl)ccc1Cl)B1OC(=O)C(CC(=O)O)(CC(=O)O)O1	25.3%

Block 4
Target: Tyrosine-protein kinase receptor UFO (AXL, Homo sapiens, UniProt P30530)
Effect on: enzyme activity
Mode: inhibitor
Concentration: 0.5 µM
Relative to: control
Target sequence (P30530 1-894): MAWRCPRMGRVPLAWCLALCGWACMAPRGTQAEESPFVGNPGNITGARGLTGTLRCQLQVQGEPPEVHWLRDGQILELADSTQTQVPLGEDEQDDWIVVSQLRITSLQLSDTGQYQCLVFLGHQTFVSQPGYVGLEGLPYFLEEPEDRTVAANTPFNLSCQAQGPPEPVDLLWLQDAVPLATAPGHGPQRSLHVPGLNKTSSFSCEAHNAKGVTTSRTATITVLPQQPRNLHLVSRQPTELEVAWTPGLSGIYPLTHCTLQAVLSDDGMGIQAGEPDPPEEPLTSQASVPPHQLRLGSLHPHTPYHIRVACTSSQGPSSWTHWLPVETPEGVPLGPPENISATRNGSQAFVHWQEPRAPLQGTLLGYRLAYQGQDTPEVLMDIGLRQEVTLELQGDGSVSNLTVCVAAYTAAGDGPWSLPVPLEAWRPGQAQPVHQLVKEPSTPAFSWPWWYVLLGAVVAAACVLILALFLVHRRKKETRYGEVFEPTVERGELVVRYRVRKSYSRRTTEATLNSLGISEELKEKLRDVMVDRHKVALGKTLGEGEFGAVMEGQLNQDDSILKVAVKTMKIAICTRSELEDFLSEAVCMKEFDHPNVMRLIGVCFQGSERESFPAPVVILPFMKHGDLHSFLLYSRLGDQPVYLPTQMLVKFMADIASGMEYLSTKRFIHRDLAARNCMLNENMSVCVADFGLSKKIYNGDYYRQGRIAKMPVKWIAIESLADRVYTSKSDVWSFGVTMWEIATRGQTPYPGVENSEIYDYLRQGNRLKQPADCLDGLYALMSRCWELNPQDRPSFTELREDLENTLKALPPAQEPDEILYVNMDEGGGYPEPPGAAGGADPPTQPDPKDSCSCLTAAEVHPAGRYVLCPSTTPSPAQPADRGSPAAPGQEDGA
SMILES	remaining activity
COc1ccc(S(=O)(=O)N(CCO)c2ccccc2CN(C)CC=Cc2ccc(Cl)cc2)cc1	104%
Cc1ccc(NC2=CC(=O)c3sc(C)nc3C2=O)cc1	97%
Nc1nc(Nc2ccc(S(N)(=O)=O)cc2)nn1C(=O)c1c(F)cccc1F	94.2%
CC(=O)c1ccc(N2CCOCC2)cc1O	96.3%
Oc1ccc(Nc2nc(-c3ccc(Cl)cc3)cs2)cc1	98.5%
Nc1nccc(-c2c(-c3ccc(F)cc3)ncn2C2CCNCC2)n1	102%
CC[n+]1c(/C=C/N(C)c2ccccc2)n(-c2ccccc2)c2ccc(-c3nc4ccccc4s3)cc21	101%
O=C1Cc2c([nH]c3ccc([N+](=O)[O-])cc23)-c2ccccc2N1	100%
O=S(=O)(NCCNC/C=C/c1ccc(Br)cc1)c1cccc2cnccc12	112%

Excerpt of the above (block 2):
target	remaining binding
MET (Homo sapiens, UniProt P08581)	100%
Ribosomal protein S6 kinase alpha-3, N-terminal kinase domain (RPS6KA3, Homo sapiens, UniProt P51812)	100%
HIPK1 (Homo sapiens, UniProt Q86Z02)	100%
CAMK2A (Homo sapiens, UniProt Q9UQM7)	91%
NLK (Homo sapiens, UniProt Q9UBE8)	100%
